Experimental data gathered from unrelated publications.
Each line is one published result; not all experiments were run side by side. ± marks the error that the study gave.
SLC10A2: Ileal sodium/bile acid cotransporter (SLC10A2, Homo sapiens, UniProt Q12908)
Chain of UniProt Q12908 (whole entry, looked up): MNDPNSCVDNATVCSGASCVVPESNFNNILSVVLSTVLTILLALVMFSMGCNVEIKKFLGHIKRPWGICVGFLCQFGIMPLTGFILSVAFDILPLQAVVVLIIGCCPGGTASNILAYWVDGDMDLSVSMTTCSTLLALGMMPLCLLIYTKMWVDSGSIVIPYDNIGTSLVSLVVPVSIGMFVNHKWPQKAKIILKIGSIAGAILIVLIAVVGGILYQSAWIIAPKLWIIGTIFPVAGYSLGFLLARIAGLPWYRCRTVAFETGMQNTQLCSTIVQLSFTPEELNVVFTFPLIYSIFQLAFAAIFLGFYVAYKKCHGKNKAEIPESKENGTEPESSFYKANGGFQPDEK
T1: DNA aptamer; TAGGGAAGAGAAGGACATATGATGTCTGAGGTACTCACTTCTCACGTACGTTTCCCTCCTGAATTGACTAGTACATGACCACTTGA
Chain of UniProt P16442 (whole entry, unmodified, looked up): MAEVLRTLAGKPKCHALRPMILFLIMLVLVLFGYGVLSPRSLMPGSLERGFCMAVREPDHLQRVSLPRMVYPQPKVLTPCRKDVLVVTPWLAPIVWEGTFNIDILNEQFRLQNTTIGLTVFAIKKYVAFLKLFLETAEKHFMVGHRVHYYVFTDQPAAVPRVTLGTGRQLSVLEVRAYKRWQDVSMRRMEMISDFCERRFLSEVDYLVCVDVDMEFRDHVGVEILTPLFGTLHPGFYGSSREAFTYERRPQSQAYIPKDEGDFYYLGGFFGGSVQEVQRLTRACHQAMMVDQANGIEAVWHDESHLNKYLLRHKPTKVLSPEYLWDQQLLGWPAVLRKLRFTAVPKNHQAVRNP
Chain of UniProt P05067 (whole entry, looked up): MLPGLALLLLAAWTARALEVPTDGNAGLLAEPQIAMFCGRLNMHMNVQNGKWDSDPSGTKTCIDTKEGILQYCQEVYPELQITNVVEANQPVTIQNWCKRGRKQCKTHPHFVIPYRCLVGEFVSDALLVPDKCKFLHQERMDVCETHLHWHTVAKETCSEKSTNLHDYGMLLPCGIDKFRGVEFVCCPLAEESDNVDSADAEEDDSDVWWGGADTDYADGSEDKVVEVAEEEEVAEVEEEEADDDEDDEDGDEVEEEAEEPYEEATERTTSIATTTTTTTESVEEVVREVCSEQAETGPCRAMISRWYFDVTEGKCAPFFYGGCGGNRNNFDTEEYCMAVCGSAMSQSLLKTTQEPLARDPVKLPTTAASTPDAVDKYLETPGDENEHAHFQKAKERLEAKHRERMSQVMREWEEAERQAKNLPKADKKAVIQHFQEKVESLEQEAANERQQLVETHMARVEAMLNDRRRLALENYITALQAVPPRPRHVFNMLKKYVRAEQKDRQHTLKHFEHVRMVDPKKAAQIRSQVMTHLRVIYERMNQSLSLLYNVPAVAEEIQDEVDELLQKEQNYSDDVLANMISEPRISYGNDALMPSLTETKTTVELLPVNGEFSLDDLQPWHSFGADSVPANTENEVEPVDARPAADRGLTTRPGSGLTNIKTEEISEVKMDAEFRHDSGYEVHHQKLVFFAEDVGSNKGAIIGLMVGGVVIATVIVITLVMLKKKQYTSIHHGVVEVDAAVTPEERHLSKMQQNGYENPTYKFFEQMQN
Chain of UniProt P30542 (whole entry, looked up): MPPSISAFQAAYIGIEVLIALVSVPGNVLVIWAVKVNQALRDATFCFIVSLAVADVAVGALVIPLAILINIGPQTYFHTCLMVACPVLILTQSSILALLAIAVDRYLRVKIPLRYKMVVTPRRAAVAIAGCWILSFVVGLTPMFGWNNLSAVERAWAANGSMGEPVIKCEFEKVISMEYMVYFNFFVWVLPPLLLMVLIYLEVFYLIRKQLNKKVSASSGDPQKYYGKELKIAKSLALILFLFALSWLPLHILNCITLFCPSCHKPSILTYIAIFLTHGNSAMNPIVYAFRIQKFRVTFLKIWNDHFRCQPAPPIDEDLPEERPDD
Chain of UniProt Q04609 (whole entry, looked up): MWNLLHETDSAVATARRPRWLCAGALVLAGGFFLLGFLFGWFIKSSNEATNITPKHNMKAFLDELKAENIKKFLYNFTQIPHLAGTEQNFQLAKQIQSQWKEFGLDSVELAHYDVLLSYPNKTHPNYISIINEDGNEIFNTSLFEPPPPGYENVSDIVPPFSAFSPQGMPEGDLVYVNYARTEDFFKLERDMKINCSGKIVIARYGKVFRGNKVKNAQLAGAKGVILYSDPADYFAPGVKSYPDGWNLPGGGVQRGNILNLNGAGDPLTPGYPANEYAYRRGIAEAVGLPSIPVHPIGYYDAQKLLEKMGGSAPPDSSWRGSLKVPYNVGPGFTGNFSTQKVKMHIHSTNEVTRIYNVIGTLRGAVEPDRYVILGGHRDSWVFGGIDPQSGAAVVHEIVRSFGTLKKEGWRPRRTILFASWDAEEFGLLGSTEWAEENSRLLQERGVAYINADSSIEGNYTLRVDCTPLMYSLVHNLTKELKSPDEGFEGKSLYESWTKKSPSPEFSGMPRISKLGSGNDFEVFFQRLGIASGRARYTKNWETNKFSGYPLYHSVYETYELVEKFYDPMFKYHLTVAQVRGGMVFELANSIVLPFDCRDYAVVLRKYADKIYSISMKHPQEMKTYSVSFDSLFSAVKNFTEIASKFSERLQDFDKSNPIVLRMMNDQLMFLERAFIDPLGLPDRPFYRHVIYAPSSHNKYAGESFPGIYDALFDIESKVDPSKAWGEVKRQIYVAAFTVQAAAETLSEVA
Chain of UniProt O75030 (1-296, unmodified, looked up): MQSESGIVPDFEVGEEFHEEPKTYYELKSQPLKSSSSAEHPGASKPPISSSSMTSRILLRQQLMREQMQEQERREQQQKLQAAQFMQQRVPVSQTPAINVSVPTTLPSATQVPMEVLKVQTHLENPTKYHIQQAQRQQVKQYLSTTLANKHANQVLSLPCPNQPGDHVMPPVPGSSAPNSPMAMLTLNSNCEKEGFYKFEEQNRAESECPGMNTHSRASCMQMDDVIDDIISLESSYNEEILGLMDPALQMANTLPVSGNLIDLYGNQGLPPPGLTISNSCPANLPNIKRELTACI
Chain of UniProt P02769 (whole entry, looked up): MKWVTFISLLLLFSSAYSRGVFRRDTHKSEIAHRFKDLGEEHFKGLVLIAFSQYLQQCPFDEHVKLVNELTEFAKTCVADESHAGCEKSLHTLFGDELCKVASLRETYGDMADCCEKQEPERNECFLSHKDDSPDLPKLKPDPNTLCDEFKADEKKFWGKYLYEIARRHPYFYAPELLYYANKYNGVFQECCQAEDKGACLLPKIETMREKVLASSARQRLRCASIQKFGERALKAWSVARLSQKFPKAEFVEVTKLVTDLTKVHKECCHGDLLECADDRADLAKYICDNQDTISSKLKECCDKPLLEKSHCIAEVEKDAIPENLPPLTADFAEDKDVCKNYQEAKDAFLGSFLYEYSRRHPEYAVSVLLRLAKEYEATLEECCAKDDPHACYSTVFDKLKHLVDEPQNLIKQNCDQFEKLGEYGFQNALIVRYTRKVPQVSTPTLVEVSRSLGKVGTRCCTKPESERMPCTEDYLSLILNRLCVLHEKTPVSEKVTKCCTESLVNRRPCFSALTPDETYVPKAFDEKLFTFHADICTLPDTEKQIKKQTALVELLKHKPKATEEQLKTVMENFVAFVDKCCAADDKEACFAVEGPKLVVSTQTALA
Chain of UniProt Q29437 (whole entry, looked up): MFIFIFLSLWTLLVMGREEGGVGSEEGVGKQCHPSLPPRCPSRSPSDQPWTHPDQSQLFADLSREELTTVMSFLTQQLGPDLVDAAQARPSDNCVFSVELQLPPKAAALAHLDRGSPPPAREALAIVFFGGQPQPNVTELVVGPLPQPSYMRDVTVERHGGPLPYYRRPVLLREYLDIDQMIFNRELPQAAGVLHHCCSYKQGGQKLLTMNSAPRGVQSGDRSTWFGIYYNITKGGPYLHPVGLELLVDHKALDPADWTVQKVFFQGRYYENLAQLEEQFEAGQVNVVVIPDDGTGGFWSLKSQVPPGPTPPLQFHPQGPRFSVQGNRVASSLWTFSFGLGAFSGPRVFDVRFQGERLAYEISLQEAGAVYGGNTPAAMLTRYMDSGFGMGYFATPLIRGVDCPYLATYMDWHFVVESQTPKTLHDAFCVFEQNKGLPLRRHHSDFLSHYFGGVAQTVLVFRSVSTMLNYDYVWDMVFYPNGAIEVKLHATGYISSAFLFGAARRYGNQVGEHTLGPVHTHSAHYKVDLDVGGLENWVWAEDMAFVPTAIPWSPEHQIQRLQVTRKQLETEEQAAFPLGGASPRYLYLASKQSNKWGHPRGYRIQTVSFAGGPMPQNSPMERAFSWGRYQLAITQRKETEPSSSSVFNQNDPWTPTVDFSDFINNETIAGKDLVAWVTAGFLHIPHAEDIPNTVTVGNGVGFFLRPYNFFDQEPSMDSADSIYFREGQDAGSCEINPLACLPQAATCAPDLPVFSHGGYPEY
Chain of UniProt P56817 (whole entry, unmodified, looked up): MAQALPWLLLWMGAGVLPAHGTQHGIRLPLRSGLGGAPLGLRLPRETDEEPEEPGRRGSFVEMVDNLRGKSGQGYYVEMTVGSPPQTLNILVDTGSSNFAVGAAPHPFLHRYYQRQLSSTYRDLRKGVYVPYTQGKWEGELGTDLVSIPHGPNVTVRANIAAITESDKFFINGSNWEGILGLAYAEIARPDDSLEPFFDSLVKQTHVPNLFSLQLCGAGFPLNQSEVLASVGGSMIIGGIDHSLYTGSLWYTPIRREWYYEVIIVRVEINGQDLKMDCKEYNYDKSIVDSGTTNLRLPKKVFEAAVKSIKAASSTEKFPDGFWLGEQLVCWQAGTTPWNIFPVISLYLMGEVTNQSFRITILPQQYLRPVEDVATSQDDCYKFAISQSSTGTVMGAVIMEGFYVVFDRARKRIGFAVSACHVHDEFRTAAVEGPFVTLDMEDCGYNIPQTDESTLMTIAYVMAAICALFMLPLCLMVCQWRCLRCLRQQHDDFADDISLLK

COc1ccc(NC(=O)CC[C@H](NC(=O)CC[C@@H](C)[C@H]2CC[C@H]3[C@@H]4[C@H](O)C[C@@H]5C[C@H](O)CC[C@]5(C)[C@H]4CC[C@]23C)C(=O)O)cn1 — normalized Jmax/Kt (SLC10A2; transport efficiency, substrate, LC-MS/MS; ASBT-MDCK): 0.202 µM⁻¹
CCC(=C(c1ccc(Cl)cc1)c1ccc(OCCN(CC)CC)cc1)c1ccc(OC)cc1 — fold activation (Estrogen receptor (ESR1, Homo sapiens, UniProt P03372); reporter gene, agonist, yeast estrogen screen; 1 µM; baseline: DMSO): 3.27 ± 0.31 fold
Cn1c(-n2nccn2)nc2c(N)nc(C(=O)Nc3ccccc3)nc21 — binding free energy (ADORA2A (Homo sapiens, UniProt P29274); radioligand displacement; HEK293 cell membranes; 25 °C, added: [3H]ZM241385): -10.4 ± 0.01 kcal/mol
Cc1cc(C#CC2(O)CCCCC2)cc2c1cc(C(=O)O)n2-c1cccc(Cl)c1 — -TΔS (Microphthalmia-associated transcription factor, residues 1-296 (Homo sapiens, UniProt O75030); binding, isothermal titration calorimetry; 25 °C): 1.82 ± 0.932 kcal/mol
CC(=O)[C@H]1CC[C@H]2[C@@H]3CCC4=CC(=NOCC(=O)O)CC[C@]4(C)[C@H]3CC[C@]12C — Kd (T1, DNA aptamer; bead-ELAA; NaCl 100 mM): 0.0391 µM
Nc1cccc2c1[nH]c(=O)n2C1CCN(C(=O)Nc2ccc(I)cc2)CC1 — thermal shift (OGG1 (Homo sapiens, UniProt O15527); differential scanning fluorimetry; higher = stabilisation): 5.5 K
COc1ccc(-c2nc(CSc3nc(N)c(C#N)c(-c4ccc5c(c4)OCO5)c3C#N)cs2)cc1 — Emax (ADORA1 (Homo sapiens, UniProt P30542); cAMP, agonist): 104%
O=Cc1ccc(-c2cn([C@@H]3O[C@H](COP(=O)(O)OP(=O)(O)O[C@H]4O[C@H](CO)[C@H](O)[C@H](O)[C@H]4O)[C@@H](O)[C@H]3O)c(=O)[nH]c2=O)s1 — kcat (ABO (Homo sapiens, UniProt P16442, G268A/L266G); substrate, HPLC): 0.024 ± 0.001 s⁻¹
CCNC(=O)[C@H]1O[C@@H](n2cnc3c(Nc4ccc(I)cc4)ncnc32)[C@H](O)[C@@H]1O — residence time (ADORA3 (Homo sapiens, UniProt P0DMS8); kinetic radioligand binding; no GTP, added: [3H]PSB-11): 117 ± 12 min
O=C([O-])CN1CCN(CC(=O)[O-])CCN(C(CCC(=O)NCCCCCN(CCCC[C@H](NC(=O)N[C@@H](CCC(=O)O)C(=O)O)C(=O)O)C(=O)c2ccc(I)cc2)C(=O)O)CCN(CC(=O)[O-])CC1.[68Ga+3] (stereo partly shown) — SUVmax (FOLH1 (Homo sapiens, UniProt Q04609); PET/CT; prostate cancer patients, lymph node metastases; 60 min post-injection): 17.1 ± 15.2
CCCCCCCCO[C@@H]1O[C@H](CO)[C@H](O)C[C@H]1O[C@@H]1O[C@@H](C)[C@@H](O)[C@@H](O)[C@@H]1O — koff (ABO (Homo sapiens, UniProt P16442, G235S/G268A/L266M/R176G); binding, methyl-TROSY NMR titration; added: saturating UDP-Glc): 390 ± 20 s⁻¹
CC(=O)N[C@H](C(=O)N[C@@H](CC(C)C)C(=O)N[C@@H](CC(=O)O)C(=O)N[C@@H](CO)C(=O)N[C@@H](Cc1ccccc1)C(=O)N[C@@H](CCCCN)C(=O)N[C@H](C(=O)N[C@@H](CO)C(=O)N[C@@H](Cc1ccccc1)C(=O)N[C@@H](CC(C)C)C(=O)N[C@@H](CO)C(=O)N[C@@H](C)C(=O)N[C@@H](CC(C)C)C(=O)N[C@@H](CCC(=O)O)C(=O)N[C@@H](CCC(=O)O)C(=O)N[C@@H](Cc1ccc(O)cc1)C(=O)N[C@H](C(=O)N[C@@H](CCCCN)C(=O)N[C@@H](CCCCN)C(=O)N[C@@H](CC(C)C)C(=O)N[C@@H](CC(N)=O)C(=O)N[C@H](C(=O)N[C@@H](CCC(N)=O)C(N)=O)[C@@H](C)O)[C@@H](C)O)C(C)C)C(C)C — cholesterol efflux (ABCG1 (Homo sapiens, UniProt P45844); BHK transfected with ABCG1; 18 h): no effect
C[C@@H]1O[C@@H](O[C@@H]2C(=O)c3c(O)cc(O)cc3O[C@@H]2c2ccc(O)cc2)[C@H](O)[C@H](O)[C@H]1O — Ki (enzyme-substrate complex) (PTPN1 (Homo sapiens, UniProt P18031); Lineweaver-Burk and Dixon plots): 9.55 µM
Cc1cc(C)c2sc(NC(=O)C3CCN(S(=O)(=O)c4ccc(F)cc4)CC3)nc2c1 — enzyme activity (N-acyl-phosphatidylethanolamine-hydrolyzing phospholipase D (Homo sapiens, UniProt Q6IQ20); activator; HepG2; concentration not given, added: flame-NAPE substrate): increased
O=c1[nH]cnc2c(CN3C[C@H](O)[C@@H](O)C3)c[nH]c12 — binding free energy (PNP (Homo sapiens, UniProt P00491); first subunit): -10 ± 0.04 kcal/mol
CN(C1COC1)C(C)(C)/C=C(\C#N)C(=O)N1CCC[C@H]1Cn1nc(-c2ccc(Oc3ccccc3)cc2F)c2c(N)ncnc21 — recovery of activity (BTK (Homo sapiens, UniProt Q06187); enzyme activity; concentration not given, 3 days dialysis, room temperature): 25%
[3H]C([3H])([3H])c1cnccc1CN1C[C@@H](c2cc(F)c(F)c(F)c2)CC1=O — specific binding (SV2A (Homo sapiens, UniProt Q7L0J3); radioligand binding; human Alzheimer disease, temporal cortex, hippocampus homogenate; 5 nM; baseline: control brains): decreased
CCC(=C(c1ccc(O)cc1)c1ccc(OCCN(C)CCOCCOCCOCCOCCN(C)CCOc2ccc(C(=C(CC)c3ccccc3)c3ccc(O)cc3)cc2)cc1)c1ccccc1 (mixture of isomers) — relative binding affinity (ESR2 (Homo sapiens, UniProt Q92731); radioligand competition binding; concentration not given, Z-Z/Z isomer form, added: [3H]estradiol tracer; baseline: estradiol): 12.2 ± 2.1%
C[N+](C)(C)CCCOc1ccc2cc(CN)ccc2c1 — Km (Primary amine oxidase, liver isozyme (Bos taurus, UniProt Q29437); substrate, fluorescence; pH 7.2, 30 °C): 0.125 ± 0.0096 µM
CCc1nc2cc3ccccc3cc2cc1C(=O)N[C@@H](CCCCN)C(=O)N[C@@H](C/C=C/C[C@H](NC(=O)[C@H](CCCCN)NC(=O)c1cc2cc3ccccc3cc2nc1CC)C(=O)N1CCC[C@H]1C(=O)NCCCN)C(=O)N1CCC[C@H]1C(=O)NCCCN — residence time ((CCUG)10 RNA; SPR): 4.27 min
Cc1ccc(NC(=O)CCC(NC(=O)CCC(C)C2CCC3C4C(O)CC5CC(O)CCC5(C)C4CCC23C)C(=O)O)c(C)n1 (stereo not shown) — Jmax (SLC10A2; transport, substrate; ASBT-MDCK cells; unit not given; baseline: taurocholate Jmax): 0.511
Cc1cc2nc(C(=O)O)c(=O)[nH]c2cc1C — binding (Beta-secretase 1 (BACE1, Homo sapiens, UniProt P56817, D93N); binder, surface plasmon resonance; concentration not given, D32N catalytic-site mutant): binds
[11CH3]Nc1ccc(-c2nc3ccc(O)cc3o2)cn1 — effect size of DVR (APP (Homo sapiens, UniProt P05067); binding, PET; Alzheimer's disease patients, parietal cortex; unit not given; baseline: control subjects): 4.55
CCCCOc1ccc(C(=O)OCCN2CC=CCC2)cc1 — dissociation half-time (CHRM3 (Homo sapiens, UniProt P20309); recovery of [3H]NMS binding after washing; membranes; 100 µM): 0.2 ± 0.1 h
[123I]c1ccc2nc(-c3ccc(-n4ccnn4)nc3)cn2c1 — SUVR (Amyloid-beta precursor protein, amyloid-beta (APP, Homo sapiens, UniProt P05067); SPECT; healthy human controls, subcortical white matter; 120 to 210 min; baseline: cerebellum): 0.8 ± 0.01
N=C(N)NCCC[C@H](NC(=O)[C@H](CC(=O)O)NC(=O)[C@@H]1CSCCCC(=O)NCC(=O)N[C@@H](Cc2c[nH]cn2)C(=O)N[C@H](Cc2ccccc2)C(=O)N[C@@H](CCCNC(=N)N)C(=O)N[C@@H](Cc2c[nH]c3ccccc23)C(=O)N1)C(=O)N[C@@H](Cc1ccccc1)C(=O)NCC(N)=O — activation (MC3R (Homo sapiens, UniProt P41968); cAMP accumulation, agonist; HEK293 expressing MC3R; 10 µM; baseline: MT-II): 50%
O=C1C=CC2(c3coc4cc(O)ccc4c3=O)c3cc(-c4coc5cc(O)ccc5c4=O)ccc3OC2C1 (stereo not shown) — Vmax (PRXC1A (Armoracia rusticana, UniProt P00433); oxidation, substrate): 56.5 ± 2.5 µmol/min/mg
Cc1ccc2ccc3ccc(C)nc3c2n1.Cc1ccc2ccc3ccc(C)nc3c2n1.O.[Cl-].[Cl-].[Cl-].[Yb+3] — number of binding sites (Albumin (ALB, Bos taurus, UniProt P02769); fluorescence quenching titration; concentration not given, 303 K): 1.07
